Published values gathered from unrelated publications.
Each line is one published result; not all experiments were run side by side. “And” joins repeats or separate records; there may be more than shown. Numbers after ± are the reported error.
Peptidyl-prolyl cis-trans isomerase FKBP1B: Peptidyl-prolyl cis-trans isomerase FKBP1B (Homo sapiens, UniProt P68106)
Chain of UniProt P68106 (whole entry, looked up): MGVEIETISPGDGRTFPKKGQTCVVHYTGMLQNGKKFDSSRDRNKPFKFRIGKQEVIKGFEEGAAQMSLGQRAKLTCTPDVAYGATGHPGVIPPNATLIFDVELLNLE
BRD9: Bromodomain-containing protein 9 (BRD9, Homo sapiens, UniProt Q9H8M2)
Chain of UniProt Q9H8M2 (whole entry, looked up): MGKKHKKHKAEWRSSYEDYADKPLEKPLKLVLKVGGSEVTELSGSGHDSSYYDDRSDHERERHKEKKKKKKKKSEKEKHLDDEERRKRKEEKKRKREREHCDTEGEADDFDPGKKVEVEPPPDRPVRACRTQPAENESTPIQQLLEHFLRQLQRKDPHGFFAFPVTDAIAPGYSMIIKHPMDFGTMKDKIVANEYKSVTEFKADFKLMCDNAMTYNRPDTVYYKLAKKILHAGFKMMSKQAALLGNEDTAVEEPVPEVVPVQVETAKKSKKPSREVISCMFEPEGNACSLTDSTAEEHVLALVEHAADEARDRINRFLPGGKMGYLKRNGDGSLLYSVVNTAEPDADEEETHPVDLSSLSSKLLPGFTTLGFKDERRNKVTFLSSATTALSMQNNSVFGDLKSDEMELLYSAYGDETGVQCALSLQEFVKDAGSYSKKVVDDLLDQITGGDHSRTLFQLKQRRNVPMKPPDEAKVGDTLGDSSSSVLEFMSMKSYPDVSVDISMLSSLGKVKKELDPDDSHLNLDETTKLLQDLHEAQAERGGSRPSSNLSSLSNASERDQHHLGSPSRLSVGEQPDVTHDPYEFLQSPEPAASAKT
clpP: ATP-dependent Clp protease proteolytic subunit (clpP, Escherichia coli, UniProt P0A6G7)
Chain of UniProt P0A6G7 (whole entry, looked up): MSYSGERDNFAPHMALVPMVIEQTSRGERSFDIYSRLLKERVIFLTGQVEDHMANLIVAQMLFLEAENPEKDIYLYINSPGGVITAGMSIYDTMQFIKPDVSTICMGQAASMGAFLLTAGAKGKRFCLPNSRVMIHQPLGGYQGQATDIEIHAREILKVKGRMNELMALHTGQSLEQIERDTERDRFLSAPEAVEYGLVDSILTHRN
GAP50: Glideosome-associated protein 50 (GAP50, Plasmodium falciparum, UniProt Q8I2X3)
Chain of UniProt Q8I2X3 (whole entry, looked up): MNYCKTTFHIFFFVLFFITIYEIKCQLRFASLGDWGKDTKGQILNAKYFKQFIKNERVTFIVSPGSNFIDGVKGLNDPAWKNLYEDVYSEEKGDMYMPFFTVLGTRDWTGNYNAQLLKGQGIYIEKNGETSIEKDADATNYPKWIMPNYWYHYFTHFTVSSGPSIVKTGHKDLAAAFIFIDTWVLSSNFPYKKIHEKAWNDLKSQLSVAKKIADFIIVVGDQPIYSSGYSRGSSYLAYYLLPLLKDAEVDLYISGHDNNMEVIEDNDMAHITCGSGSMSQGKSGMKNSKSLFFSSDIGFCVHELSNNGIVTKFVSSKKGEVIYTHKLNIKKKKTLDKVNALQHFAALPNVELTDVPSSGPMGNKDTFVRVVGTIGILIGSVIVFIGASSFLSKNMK
Chain of UniProt P08191 (whole entry, looked up): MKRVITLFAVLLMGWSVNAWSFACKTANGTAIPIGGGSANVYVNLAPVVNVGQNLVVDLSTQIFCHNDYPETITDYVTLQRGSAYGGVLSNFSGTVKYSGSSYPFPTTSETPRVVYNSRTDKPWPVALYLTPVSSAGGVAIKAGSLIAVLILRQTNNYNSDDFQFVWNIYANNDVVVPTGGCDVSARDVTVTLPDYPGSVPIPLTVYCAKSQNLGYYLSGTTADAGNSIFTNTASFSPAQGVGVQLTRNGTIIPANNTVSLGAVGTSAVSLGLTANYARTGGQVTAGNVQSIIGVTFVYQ
Chain of UniProt Q9SZU7 (whole entry, unmodified, looked up): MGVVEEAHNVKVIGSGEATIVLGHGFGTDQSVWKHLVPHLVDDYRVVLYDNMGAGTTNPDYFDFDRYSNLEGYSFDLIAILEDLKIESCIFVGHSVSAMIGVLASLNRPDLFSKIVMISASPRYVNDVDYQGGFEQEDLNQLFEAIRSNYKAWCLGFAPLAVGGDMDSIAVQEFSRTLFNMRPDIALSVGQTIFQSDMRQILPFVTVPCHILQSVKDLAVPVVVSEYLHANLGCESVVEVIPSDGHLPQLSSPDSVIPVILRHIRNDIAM
Chain of UniProt Q969S8 (whole entry, looked up): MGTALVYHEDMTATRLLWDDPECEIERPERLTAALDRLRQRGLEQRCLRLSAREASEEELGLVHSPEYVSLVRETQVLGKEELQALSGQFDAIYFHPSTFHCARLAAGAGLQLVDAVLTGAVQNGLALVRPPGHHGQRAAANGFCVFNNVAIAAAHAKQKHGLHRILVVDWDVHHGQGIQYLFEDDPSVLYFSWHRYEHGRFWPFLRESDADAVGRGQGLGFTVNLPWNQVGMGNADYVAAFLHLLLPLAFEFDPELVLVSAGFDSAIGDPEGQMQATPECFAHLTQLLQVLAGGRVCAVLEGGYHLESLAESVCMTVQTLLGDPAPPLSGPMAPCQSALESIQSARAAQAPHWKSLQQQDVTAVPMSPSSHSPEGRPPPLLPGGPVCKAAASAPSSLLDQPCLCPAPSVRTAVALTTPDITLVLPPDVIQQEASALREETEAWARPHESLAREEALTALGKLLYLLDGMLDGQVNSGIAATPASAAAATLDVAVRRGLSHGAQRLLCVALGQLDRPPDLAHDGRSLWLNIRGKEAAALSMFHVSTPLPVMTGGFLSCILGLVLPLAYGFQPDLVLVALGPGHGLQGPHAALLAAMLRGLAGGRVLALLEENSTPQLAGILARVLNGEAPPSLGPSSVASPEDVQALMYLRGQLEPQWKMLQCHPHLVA
Chain of UniProt P32320 (whole entry, looked up): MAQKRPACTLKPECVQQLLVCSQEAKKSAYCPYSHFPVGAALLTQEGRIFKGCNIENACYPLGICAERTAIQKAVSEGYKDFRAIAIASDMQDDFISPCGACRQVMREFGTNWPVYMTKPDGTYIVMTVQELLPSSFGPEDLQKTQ
Chain of UniProt Q02156 (whole entry, looked up): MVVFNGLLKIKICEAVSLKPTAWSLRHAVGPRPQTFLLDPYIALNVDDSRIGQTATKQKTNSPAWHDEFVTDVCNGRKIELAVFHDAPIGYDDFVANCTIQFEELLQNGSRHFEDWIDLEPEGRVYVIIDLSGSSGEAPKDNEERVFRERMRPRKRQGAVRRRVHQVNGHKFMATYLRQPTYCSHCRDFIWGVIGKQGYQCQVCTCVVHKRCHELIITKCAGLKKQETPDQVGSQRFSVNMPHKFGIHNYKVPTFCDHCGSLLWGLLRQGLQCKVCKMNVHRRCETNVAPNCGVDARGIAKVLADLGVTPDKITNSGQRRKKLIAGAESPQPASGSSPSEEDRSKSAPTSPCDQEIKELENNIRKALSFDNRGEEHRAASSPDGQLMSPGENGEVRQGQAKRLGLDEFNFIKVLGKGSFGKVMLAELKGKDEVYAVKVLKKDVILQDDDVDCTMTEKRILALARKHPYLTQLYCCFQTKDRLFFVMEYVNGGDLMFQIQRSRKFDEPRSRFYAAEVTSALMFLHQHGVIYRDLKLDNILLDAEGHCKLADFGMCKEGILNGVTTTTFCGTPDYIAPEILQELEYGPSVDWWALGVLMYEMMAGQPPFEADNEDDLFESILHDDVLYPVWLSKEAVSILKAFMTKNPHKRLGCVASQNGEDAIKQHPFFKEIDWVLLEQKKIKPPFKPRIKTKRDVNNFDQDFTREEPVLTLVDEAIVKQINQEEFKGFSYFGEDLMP
Chain of UniProt P11086 (whole entry, looked up): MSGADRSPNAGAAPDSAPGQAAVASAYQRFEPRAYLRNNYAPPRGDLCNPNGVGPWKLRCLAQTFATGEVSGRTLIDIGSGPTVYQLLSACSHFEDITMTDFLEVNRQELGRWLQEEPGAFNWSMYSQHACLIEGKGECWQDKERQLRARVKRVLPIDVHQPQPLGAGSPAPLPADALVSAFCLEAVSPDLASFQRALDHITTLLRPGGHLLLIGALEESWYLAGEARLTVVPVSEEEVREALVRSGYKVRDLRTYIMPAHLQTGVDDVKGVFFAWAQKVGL
Chain of UniProt P52333 (whole entry, looked up): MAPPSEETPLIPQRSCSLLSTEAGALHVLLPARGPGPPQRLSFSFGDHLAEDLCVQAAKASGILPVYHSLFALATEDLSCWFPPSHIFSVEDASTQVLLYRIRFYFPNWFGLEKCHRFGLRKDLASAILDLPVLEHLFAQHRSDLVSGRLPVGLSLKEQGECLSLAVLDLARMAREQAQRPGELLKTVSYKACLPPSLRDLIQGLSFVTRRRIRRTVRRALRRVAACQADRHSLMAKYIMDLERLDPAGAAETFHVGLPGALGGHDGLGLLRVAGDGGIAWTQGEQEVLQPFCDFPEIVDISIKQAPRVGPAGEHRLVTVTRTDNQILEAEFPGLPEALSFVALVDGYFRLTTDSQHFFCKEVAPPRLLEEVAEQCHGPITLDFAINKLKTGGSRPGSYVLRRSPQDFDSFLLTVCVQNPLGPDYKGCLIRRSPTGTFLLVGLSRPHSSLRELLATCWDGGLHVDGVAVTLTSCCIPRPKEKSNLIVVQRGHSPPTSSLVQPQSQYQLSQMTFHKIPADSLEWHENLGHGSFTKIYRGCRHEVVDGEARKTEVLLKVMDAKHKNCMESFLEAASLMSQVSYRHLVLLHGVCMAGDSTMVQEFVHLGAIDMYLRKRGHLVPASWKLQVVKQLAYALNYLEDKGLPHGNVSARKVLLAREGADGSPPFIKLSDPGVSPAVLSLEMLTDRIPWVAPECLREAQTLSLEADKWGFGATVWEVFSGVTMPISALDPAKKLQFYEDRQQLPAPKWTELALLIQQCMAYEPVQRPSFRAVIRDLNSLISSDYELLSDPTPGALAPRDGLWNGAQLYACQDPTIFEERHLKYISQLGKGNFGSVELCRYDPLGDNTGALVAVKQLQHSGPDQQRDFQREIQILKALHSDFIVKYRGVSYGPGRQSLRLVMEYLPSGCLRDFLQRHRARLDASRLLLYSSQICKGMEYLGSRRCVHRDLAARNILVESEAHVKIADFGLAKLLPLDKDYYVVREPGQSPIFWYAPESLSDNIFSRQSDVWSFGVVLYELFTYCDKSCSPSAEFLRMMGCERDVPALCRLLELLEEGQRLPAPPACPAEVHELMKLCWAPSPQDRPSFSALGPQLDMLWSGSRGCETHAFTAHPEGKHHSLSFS

The Kd of `CCc1nc2cc3ccccc3cc2cc1C(=O)N1CCC[C@H]1C(=O)N[C@@H](C/C=C/C[C@H](NC(=O)[C@@H]1CCCN1C(=O)c1cc2cc3ccccc3cc2nc1CC)C(=O)N[C@@H](CCCCN)C(=O)NCCCN)C(=O)N[C@@H](CCCCN)C(=O)NCCCN` is reported as 28 nM ((CUG)4 RNA; SPR).
`C=CC1CN(Cc2ccccn2)C(=O)C2CCCC1N2S(=O)(=O)c1cc(Cl)cc(Cl)c1` (stereo not drawn) has a Kd of 6.9 nM (Peptidyl-prolyl cis-trans isomerase FKBP1B; ligand displacement, FP).
`Cc1ncsc1-c1ccc(CNC(=O)[C@@H]2C[C@@H](O)CN2C(=O)[C@@H](NC(=O)C2(F)CC2)C(C)(C)C)c(OCCC2CN(c3nc(NCC(C)(C)C4(O)CCOC4)nc(N4CCC[C@H]4Cn4ccnn4)n3)C2)c1` (stereo partly drawn) has a Kd of 9700 nM (BRD9; binding, SPR).
For `Cn1ncc2cc(-c3cncc(Cl)c3N3CCC4(CCNC4=O)CC3)ccc21`, the Kd was over 8240 nM (Cytidine deaminase (CDA, Homo sapiens, UniProt P32320); cell-free assay; lysate).
The Kd of `Cc1cccc2c1N(C(=O)n1ccnn1)CC2` is reported as 556000 nM and 329000 nM (KAI2 (Arabidopsis thaliana, UniProt Q9SZU7, F194A); ITC; F194A mutant).
The Kd of `CCCCCCCO[C@H]1CO[C@H](CO)[C@@H](O)[C@H](O)[C@@H]1O` is reported as 751 nM and 575 nM (Type 1 fimbrin D-mannose specific adhesin, lectin domain (fimH, Escherichia coli K-12, UniProt P08191); binding, isothermal titration calorimetry; 37 °C, individual titrations).
The Kd of `C=C[C@H]1CN(Cc2ccccn2)C(=O)[C@@H]2CCC[C@H]1N2[S@@+]([O-])c1cc(Cl)cc(Cl)c1` is reported as 394 nM (Peptidyl-prolyl cis-trans isomerase FKBP1B; ligand displacement, FP).
For `OC[C@@H]1[C@@H](O)[C@H](O)[C@@H](O)c2nccn21`, the Kd was 55 nM (bglA (Thermotoga maritima, UniProt Q08638); binding, ITC; pH 5.8).
`CC(=O)NCCN(c1nc(N2CC(Oc3ccccc3)C2)nc(N2CC3C(CCOc4cc(-c5scnc5C)ccc4CNC(=O)[C@@H]4C[C@@H](O)CN4C(=O)[C@@H](NC(=O)C4(F)CC4)C(C)(C)C)C3C2)n1)C(C)C` (stereo partly drawn) has a Kd of over 20000 nM (BRD9; binding, SPR).
For `CCCCC=CC(=O)NC(Cc1cc(F)cc(F)c1)C(=O)NC1COC(=O)C2CCCN2C(=O)C(C)NC(=O)C(C)N(C)C(=O)C2CCCN2C1=O` (stereo not drawn), the Kd was 7500 ± 340 nM (clpP; peptidase activity, activator; 30 °C, with: fluorogenic decapeptide 15 µM).
The Kd of `C=CC(=O)N1CCCN(C(=O)c2cc(Sc3cnc(NC(=O)C4CC4)s3)c(C)cc2OC)C[C@H]1C` is reported as 2800 nM (Tyrosine-protein kinase JAK3 (JAK3, Homo sapiens, UniProt P52333); binding, competition with immobilised ligand).
`Cc1ccc2c(c1)C1CC(C)(N2)c2c(C)nc3ccc(C)cc3c21` (stereo not drawn) has a Kd of 757000 nM (GAP50; binding, surface plasmon resonance; 1:1 binding model).
For `COc1ccc(C(=O)NO)cc1NC(=O)c1ccc(-c2ccccc2)cc1`, the Kd was 672 nM (Polyamine deacetylase HDAC10 (HDAC10, Homo sapiens, UniProt Q969S8); inhibitor, competition pulldown; SW620 and MV4-11 lysate; 1 h).
With `Cc1c[nH]c2nccc(-c3ccc(C(=O)N[C@@H]4c5c(F)cc(C(F)F)cc5C[C@@H]4O)cn3)c12` the Kd was 1010 nM (Protein kinase C epsilon type (PRKCE, Homo sapiens, UniProt Q02156); binding, competition with immobilised ligand).
For `CC(=O)NCC1CCCCN1c1nc(NCCn2nnc(C)n2)nc(N2CC3C(CCOc4cc(-c5scnc5C)ccc4CNC(=O)[C@@H]4C[C@@H](O)CN4C(=O)[C@@H](NC(=O)C4(F)CC4)C(C)(C)C)C3C2)n1` (stereo partly drawn), the Kd was over 20000 nM (BRD9; binding, SPR).
`CCCC/C=C/C(=O)N[C@@H](Cc1cc(F)cc(F)c1)C(=O)N[C@@H]1C(=O)N2CCC[C@H]2C(=O)N(C)[C@@H](C)C(=O)N[C@@H](C)C(=O)N2CCC[C@H]2C(=O)O[C@H]1C` has a Kd of 1300 ± 100 nM (clpP; peptidase activity, activator; 30 °C, with: fluorogenic decapeptide 15 µM).
`C=CC(=O)N1C[C@H](C)N(c2nc(OC[C@@]34CCCN3C[C@H](F)C4)nc3c(F)c(-c4ccc(F)c5sc(N)c(C#N)c45)c(C(F)(F)F)cc23)C[C@H]1C` gave a Kd of 0.925 ± 0.19 nM (GTPase KRas, GDP-bound (KRAS, Homo sapiens, UniProt P01116, Q61R); SPR).
With `CC(=O)NCC1CCCCN1c1nc(NCC2Cc3ccccc3O2)nc(N2CC3C(CCOc4cc(-c5scnc5C)ccc4CNC(=O)C4CC(O)CN4C(=O)C(NC(=O)C4(F)CC4)C(C)(C)C)C3C2)n1` (stereo not drawn) the Kd was over 20000 nM (BRD9; binding, SPR).
For `CCc1nc2cc3ccccc3cc2cc1C(=O)N1CCC[C@H]1C(=O)N[C@@H](CCC/C=C/CCC[C@H](NC(=O)[C@@H]1CCCN1C(=O)c1cc2cc3ccccc3cc2nc1CC)C(=O)N[C@@H](CCCCN)C(=O)NCCCN)C(=O)N[C@@H](CCCCN)C(=O)NCCCN`, the Kd was 51 nM ((CUG)4 RNA; SPR).
`Nc1ncnc2c1ncn2C1OC(CN(CCCC2CNCc3c2ccc(Cl)c3Cl)CCC(N)C(=O)O)C(O)C1O` (mixture of isomers) gave a Kd of 20 ± 1 nM (Phenylethanolamine N-methyltransferase (PNMT, Homo sapiens, UniProt P11086); ITC; pH 8.0, 25 °C, first site, without SAH).
`CCOC(=O)c1ccc2c(c1)C1CC(C)(N2)c2c(C)nc3ccc(C(=O)OCC)cc3c21` (stereo not drawn) has a Kd of 1440 nM (GAP50; binding, surface plasmon resonance; 1:1 binding model).

For quick reference, copied from above:
With `CC(=O)NCC1CCCCN1c1nc(NCC2Cc3ccccc3O2)nc(N2CC3C(CCOc4cc(-c5scnc5C)ccc4CNC(=O)C4CC(O)CN4C(=O)C(NC(=O)C4(F)CC4)C(C)(C)C)C3C2)n1` (stereo not drawn) the Kd was over 20000 nM (BRD9; binding, SPR).
For `CCc1nc2cc3ccccc3cc2cc1C(=O)N1CCC[C@H]1C(=O)N[C@@H](CCC/C=C/CCC[C@H](NC(=O)[C@@H]1CCCN1C(=O)c1cc2cc3ccccc3cc2nc1CC)C(=O)N[C@@H](CCCCN)C(=O)NCCCN)C(=O)N[C@@H](CCCCN)C(=O)NCCCN`, the Kd was 51 nM ((CUG)4 RNA; SPR).
`Nc1ncnc2c1ncn2C1OC(CN(CCCC2CNCc3c2ccc(Cl)c3Cl)CCC(N)C(=O)O)C(O)C1O` (mixture of isomers) gave a Kd of 20 ± 1 nM (Phenylethanolamine N-methyltransferase (PNMT, Homo sapiens, UniProt P11086); ITC; pH 8.0, 25 °C, first site, without SAH).
`CCOC(=O)c1ccc2c(c1)C1CC(C)(N2)c2c(C)nc3ccc(C(=O)OCC)cc3c21` (stereo not drawn) has a Kd of 1440 nM (GAP50; binding, surface plasmon resonance; 1:1 binding model).
